Assay results pooled from the literature.
Parts stem from different laboratories: compare values within a part only.

Sample 1
Target: Hepatocyte nuclear factor 3-beta, forkhead domain (FOXA2, Homo sapiens, UniProt Q9Y261, residues 142-269)
Method: protein-binding microarray
Molecule type: double-stranded DNA, one strand shown
Matrix: in vitro
Tested at: not given
Setting: k-mer, scored over probes, only values ≥0.25
Reading: higher = stronger binding
Construct (chain): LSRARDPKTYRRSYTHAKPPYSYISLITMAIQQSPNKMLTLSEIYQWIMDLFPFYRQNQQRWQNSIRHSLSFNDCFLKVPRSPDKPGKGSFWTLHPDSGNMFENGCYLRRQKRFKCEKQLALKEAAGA
| Strand | E-score |
| --- | --- |
| CATTGTAA | 0.272 |
| TAGAATAA | 0.303 |
| CATTACAA | 0.272 |
| TCTGATAA | 0.285 |
| AATTTAAT | 0.263 |
| AATTTACA | 0.252 |
| AACTTATA | 0.257 |
| ATCACACA | 0.33 |
| CAAACACC | 0.291 |

Sample 2
Target: RNA binding protein fox-1 homolog 2, RRM domain, GST-SBP tag (RBFOX2, Homo sapiens, UniProt O43251-10, residues 100-194)
Method: RNA Bind-n-Seq
Molecule type: RNA
Matrix: in vitro
Tested at: 365 nM
Setting: natural RNA segment, single round, ends assumed
Reference: no-protein control
Reading: higher = stronger binding
Constant ends, left off below: GGGAGUUCUACAGUCCGACGAUC … UGGAAUUCUCGGGUGCCAA
Target sequence (chain): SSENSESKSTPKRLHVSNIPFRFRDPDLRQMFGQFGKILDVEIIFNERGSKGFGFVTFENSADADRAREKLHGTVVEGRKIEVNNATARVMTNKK
| Strand | RBNS enrichment (R) |
| --- | --- |
| GUAAAGUUUUUGUAUAUUUCAUAUUCCACCCACCAGAUUCUGCUUCCAUUUAAUAAAACCCUUUUUGAAGCUGUGUGUUCUCUGGUGUGUCACAGCAGUGUGCGGUCCUC | 0.547 |
| AGCUAGACCCUGUUCCCUCACCCUGUAUCCUGUCUCCCCUAAUUGACAUUCUAUCAGCCCAACCCUCAUUCUGCAGGGCCACCUGGUGUGUGGAGGUGGCGGGAGGGGUC | 0.368 |
| AGCAGAAUUAGAAAGAGCAUUCCCCACUUGCAGUGUCCUUCUCACAGGGAAGUCAGACGGUGGAAGAUCUGCUGCAACCAUUAUCUCUGUUCUUUGUGUAUCAUGCAUUU | 0.948 |
| UAUUUUUGCAGGCAAUCUUUUCCAUGGAGGGCAGGGUAUCCAUUCUUUACCAUGGGUGUACCUGCUUAGGUUAAAAAUCAUACCAAGGCCUCAUACUUCCAGGUUUCAUG | 0.329 |
| AGAAGAAAGGUUUUCGGAGGCGCUGUGAUGUGGUGCGCUUACACGUGUACUUUUGGUCAUCCUGGGAUGCUUCUAACUUCACUGUGUGUAGGCGUUUGCCUUGGAAAUGU | 2.74 |
| UUUAUAAGUGCAAUUUAAUUUGUAAAUAGAGUUUGAAUCAAAGUAUCACAAAAUACUGCUUCAAGAUUUAAUUUUAAAUCUGCUAAUUUAAGGGAUAUUGGGAAAAGUUU | 0.455 |
| AGCCUUGUCUUCUUAGCUGUCACCUGCCGAGGCUUCUGGGCCACUCAGGCCAGUGCACCCCUGGGCAGAGCCCCUUAAAGCUGCUGUCACUAGAUGCCCAUGGUCCAGGG | 0.271 |

Sample 3
Target: Interferon regulatory factor 5, full length, phosphomimetic (IRF5, Homo sapiens, UniProt Q13568-2, residues 1-514, K96S/S451D/S453D/S456D/S462D)
Method: protein-binding microarray
Molecule type: double-stranded DNA, one strand shown
Matrix: in vitro
Tested at: 250 nM
Setting: 60-bp whole probe
Together with: salmon DNA 0.4 mg/ml
Reference: random background probes
Reading: higher = stronger binding
Constant ends, left off below: GCCTAGCAC … GTCTTGATTCGCTTGACGCTGCTG
| Strand | log fluorescence |
| --- | --- |
| TTAGGTTCCGGTTTTGGTTAGTGCTAG | 3.07 z-score |
| TCATTTTTTTTTCCCTGACTGTGCTAG | 0.973 z-score |
| GACGGACTGGGGAGTGGGGACGTGCTA | -0.397 z-score |
| GTCGATTTCAGTTCCGAGACGTGCTAG | 2.05 z-score |
| TTAAATTTCAGTATCGATTAGTGCTAG | 9.13 z-score |
| GACGACTTCAGTATCGAGACGTGCTAG | 2.12 z-score |
| AACGGTTTCGGGTATCGGGACGTGCTA | 8.49 z-score |
| GACGGTTCCCTGTTCCTGACGTGCTAG | 0.11 z-score |
| TCACCTTTTTTTTTTTTACTGTGCTAG | 1.13 z-score |
| TAAGGTCTCGGACTGGGTTAGTGCTAG | -0.445 z-score |

Single results of other studies
| Substance | target | assay | system | setting | how to read | endpoint | result |
| --- | --- | --- | --- | --- | --- | --- | --- |
| PhoQ, residues 284 288 289 292 302 303 SSTLLI | PhoP, residues 12 14 15 18 19 GHCSL (Escherichia coli, UniProt P23836) | Sort-seq, item: YFP reporter | E. coli | PhoQ-PhoP variant library, together with: 10 µM Mg2+ | reference: high Mg2+ state, higher = stronger signaling | fold induction | 3.27 |
